Experimental data of several laboratories.
A part holds a random share of what one study measured.
Chain of UniProt P08069 (whole entry, looked up): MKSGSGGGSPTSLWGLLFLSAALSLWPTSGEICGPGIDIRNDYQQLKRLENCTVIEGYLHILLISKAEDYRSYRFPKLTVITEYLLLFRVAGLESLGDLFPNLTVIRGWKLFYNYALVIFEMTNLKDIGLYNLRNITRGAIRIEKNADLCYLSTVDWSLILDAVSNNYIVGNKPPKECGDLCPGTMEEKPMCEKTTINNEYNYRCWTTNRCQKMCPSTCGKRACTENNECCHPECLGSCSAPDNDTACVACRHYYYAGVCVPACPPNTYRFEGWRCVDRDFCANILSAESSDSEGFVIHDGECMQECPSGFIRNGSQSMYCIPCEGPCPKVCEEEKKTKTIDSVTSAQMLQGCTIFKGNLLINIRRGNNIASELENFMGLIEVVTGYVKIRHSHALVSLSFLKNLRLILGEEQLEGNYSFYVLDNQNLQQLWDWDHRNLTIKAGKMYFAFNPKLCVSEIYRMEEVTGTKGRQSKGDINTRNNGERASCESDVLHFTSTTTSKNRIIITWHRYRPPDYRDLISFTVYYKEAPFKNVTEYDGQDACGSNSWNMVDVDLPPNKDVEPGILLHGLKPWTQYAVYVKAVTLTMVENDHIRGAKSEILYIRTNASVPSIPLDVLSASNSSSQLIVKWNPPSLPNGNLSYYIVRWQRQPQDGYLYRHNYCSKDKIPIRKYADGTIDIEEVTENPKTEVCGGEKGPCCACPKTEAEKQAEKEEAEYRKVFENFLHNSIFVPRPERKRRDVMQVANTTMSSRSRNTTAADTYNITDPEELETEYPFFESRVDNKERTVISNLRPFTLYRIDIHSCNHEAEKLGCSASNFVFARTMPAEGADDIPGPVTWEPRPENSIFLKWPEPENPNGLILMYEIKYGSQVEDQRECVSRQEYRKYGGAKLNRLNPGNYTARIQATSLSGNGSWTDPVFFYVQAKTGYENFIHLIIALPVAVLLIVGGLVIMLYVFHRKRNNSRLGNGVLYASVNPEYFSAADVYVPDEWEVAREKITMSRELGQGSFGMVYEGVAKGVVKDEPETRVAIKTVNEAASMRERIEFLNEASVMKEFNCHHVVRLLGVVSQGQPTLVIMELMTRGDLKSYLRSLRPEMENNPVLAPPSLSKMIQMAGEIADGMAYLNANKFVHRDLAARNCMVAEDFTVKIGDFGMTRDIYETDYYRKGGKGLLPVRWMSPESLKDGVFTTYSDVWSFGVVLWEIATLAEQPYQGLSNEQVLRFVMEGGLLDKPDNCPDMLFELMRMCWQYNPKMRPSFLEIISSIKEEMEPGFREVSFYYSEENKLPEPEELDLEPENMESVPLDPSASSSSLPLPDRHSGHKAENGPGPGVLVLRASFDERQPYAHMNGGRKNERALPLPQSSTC

Sample 1
Target: Homeobox protein Hox-B13, full length (HOXB13, Homo sapiens, UniProt Q92826, residues 1-284)
Chain of UniProt Q92826 (whole entry, looked up): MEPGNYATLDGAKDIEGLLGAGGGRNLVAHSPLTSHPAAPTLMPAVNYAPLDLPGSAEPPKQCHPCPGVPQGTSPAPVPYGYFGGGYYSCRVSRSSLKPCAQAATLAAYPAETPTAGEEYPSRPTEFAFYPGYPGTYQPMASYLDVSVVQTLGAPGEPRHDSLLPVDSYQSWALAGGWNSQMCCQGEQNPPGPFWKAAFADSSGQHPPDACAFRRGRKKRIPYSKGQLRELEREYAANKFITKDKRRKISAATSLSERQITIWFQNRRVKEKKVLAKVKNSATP
Method: protein-binding microarray
Molecule type: hairpin DNA
Sample: in vitro
Tested at: not given
Setting: whole hairpin DNA, median over replicate spots
Baseline: not given
Direction: higher = stronger binding
`GAGGCCGTTGTATTGGGGCCTCCTGGCCCCAATACAACGGCCTCACACTC` has a median fluorescence of 4030 a.u.
With `GAGGCCGTCTTATTGGGGCCTCCTGGCCCCAATAAGACGGCCTCACACTC` the median fluorescence was 4270 a.u.
With `GAGGCCGTTTCGCGAGGGCCTCCTGGCCCTCGCGAAACGGCCTCACACTC (5mC at 11)` the median fluorescence was 4040 a.u.
`GAGGCCGTTTGATTGGGGCCTCCTGGCCCCAATCAAACGGCCTCACACTC (5mC at 34)` has a median fluorescence of 4270 a.u.
The median fluorescence of `GAGGCCGTTTTATTGAGGCCTCCTGGCCTCAATAAAACGGCCTCACACTC` is reported as 4690 a.u.
With `GAGGCCGCTTTATTGGGGCCTCCTGGCCCCAATAAAGCGGCCTCACACTC` the median fluorescence was 4550 a.u.
With `GAGGCCGTTTTACGAGTGCCTCCTGGCACTCGTAAAACGGCCTCACACTC` the median fluorescence was 5110 a.u.
With `GAGGCCCGTTTATTGGGGCCTCCTGGCCCCAATAAACGGGCCTCACACTC (5mC at 37)` the median fluorescence was 4570 a.u.

Sample 2
Target: RING finger protein unkempt homolog, zinc fingers 1-6, SBP tag (UNK, Homo sapiens, UniProt Q9C0B0, residues 30-357)
Chain of UniProt Q9C0B0 (30-357, looked up): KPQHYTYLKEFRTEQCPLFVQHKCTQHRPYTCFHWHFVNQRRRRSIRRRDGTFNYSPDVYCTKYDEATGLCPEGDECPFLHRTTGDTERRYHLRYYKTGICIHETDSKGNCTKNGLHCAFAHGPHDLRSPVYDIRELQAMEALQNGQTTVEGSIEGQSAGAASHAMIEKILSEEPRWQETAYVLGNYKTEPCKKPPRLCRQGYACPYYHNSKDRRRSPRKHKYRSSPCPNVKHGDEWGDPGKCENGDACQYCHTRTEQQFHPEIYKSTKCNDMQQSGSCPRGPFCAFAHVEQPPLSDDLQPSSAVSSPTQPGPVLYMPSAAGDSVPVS
Method: RNA Bind-n-Seq
Molecule type: RNA
Sample: in vitro
Tested at: 100 nM
Setting: RNA with constant flanks, vertebrate orthologous sites, ends assumed
Baseline: input RNA pool
Direction: higher = stronger binding
`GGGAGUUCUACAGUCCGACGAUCACACGUAUAUUGUGGCAUAUAGUCAACACGGAAGUAGACCAGCUCUGCUGAUUUGAAAUUUAGAUUUUUUUUAAUUAUGUACUGGGGACAGGUUUUUGUCGCUUUACAUUGCUUCCUAGUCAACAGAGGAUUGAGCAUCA` gave a bound/input enrichment of 4.91 ratio.
With `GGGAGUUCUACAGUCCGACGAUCCUAUAUGUAGAAAAACAAUUUUCACUGAAGCCAUUGUCAAGUUUUCCCCCUAGAAUUUUAUUAGGAGCUCUUUAAUUUUAUACAAGCUUGCUGUGUUGGUCAUCAUUUCUCCACAGUUAACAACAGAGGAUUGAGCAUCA` the bound/input enrichment was 0.849 ratio.
`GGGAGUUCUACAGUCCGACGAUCGUCAUCUGAUUGGAUGAAGACUGUCCCAAGUUAUAACCAAACAAAUAGCUCCAUGGACUUCAGAAAUUAUAUGAUGAGAGAUGAGAAUCUGGAACCACUACCCAAAAACUGGGAGAUGGCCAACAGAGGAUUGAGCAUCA` gave a bound/input enrichment of 0.355 ratio.
For `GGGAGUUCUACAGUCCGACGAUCGCAGCAGUGAAAAAGCCCUUCUCCCAGCCCCUCUUGCUCUAGGAGAUGCAGACCUUCCCCUAGAAGAGCAAUUAAACUCAAUAAAUUUAUCUUUUCAGGAUGAUCCAGACUCCUCCAGUACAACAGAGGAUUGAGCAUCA`, the bound/input enrichment was 0.976 ratio.
With `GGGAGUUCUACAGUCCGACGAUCAAGGAGAAGAGCUCACAAACUCAAAGGAAAACUAGUAAAGCGUUUCUAAUAGUUAAAAGCUAGGAAAGAUUAGGACAAUUUUACAAAUGAGCAAUUAAAAAUAAAAGAAAAAGGAUAUGGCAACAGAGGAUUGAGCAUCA` the bound/input enrichment was 0.856 ratio.
The bound/input enrichment of `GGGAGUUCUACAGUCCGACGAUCUAUAAUUAUGAAAAUCUAAAGGAUUUUUAAUGUUUAAUUUCCCCCAGCAUCUAUAGUAAGACCUCUUUUUUCCAGGCAGAUCAUUCAGAGUGUGCGAGUGUGUGUGCACAUGUUACAAAGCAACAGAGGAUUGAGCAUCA` is reported as 0.676 ratio.
`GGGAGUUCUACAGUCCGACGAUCAGGGAGAAGAGCUCACAAACUCAAAGGAAAACUAGUAAAGAGUUUCUAAUAGUUAAAAGCUAGGAAAGAUUAGGACGACUUUACAAAUGAGCAAUUAAAAAUAAAACAAAAGAAAAAGGACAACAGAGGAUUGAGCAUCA` has a bound/input enrichment of 0.987 ratio.
`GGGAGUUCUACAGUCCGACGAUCUUACAGUCAUUGAUGGACUCUAUUUUUUUAUUAUUACUUGGACCUUGGUCGUUUUUAUACUAGCAAAAUGUCUUGUUUUAAUUUGUGUUUUUUUUGGGGGGGGGGAGGGAGUGAACUUGCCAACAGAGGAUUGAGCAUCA` gave a bound/input enrichment of 3.05 ratio.

Sample 3
Target: Fragile X messenger ribonucleoprotein 1, C-terminal low-complexity region (Fmr1, Mus musculus, UniProt P35922)
Method: RNA Bind-n-Seq
Molecule type: RNA
Sample: in vitro
Tested at: 200 nM
Setting: whole 134-nt RNA, ends assumed
With: 150 mM LiCl
Baseline: input library
Direction: higher = stronger binding
All molecules: 7-deaza-guanosine replaces G
With `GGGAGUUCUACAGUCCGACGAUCACCAUGCAGGUGGGCAUCUUUGGGAAGUGGGGCAAGGGGGGGAUAGGGAGGGGGGUAACACUUUAAAAACAGGUGGUCCCAGGUCGUUUCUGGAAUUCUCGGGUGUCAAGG` the log2 enrichment was 1.35.
`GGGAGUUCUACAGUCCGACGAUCAAGUCCUGUGCUACACAUCGUAUGUACCGAAUCGGGUUUUUGGGUUUGGGAAAGGGAAAGUAUUAUGUUACGCCGUUCGGAUCUGCACUUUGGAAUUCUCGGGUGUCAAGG` has a log2 enrichment of -1.87.
With `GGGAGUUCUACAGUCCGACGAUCAGUCCUGUGCUACACAUCGUAUGUACCGAAUCGUGUGUGUGUGUGUGUGUGUGUGUGUAAAGUAUUAUGUUACGCCGUUCGGAUCUGCACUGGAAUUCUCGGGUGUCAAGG` the log2 enrichment was -0.249.
`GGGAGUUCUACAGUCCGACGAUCGAAAAUUUCUCAGUUCUUAAGAAUGCUUGCUGUGGGUAUAGUGCAGGUAUAUUGAAAGGAAUUUUUUUCUUGCAGCGGGAAAGAGACAUGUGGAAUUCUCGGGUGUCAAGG` has a log2 enrichment of -3.27.
For `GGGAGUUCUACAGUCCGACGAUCUCCUCAAGUCCUGUGCUACACAUCGUAUGUACCGAAUCGGUGGUGGGGUGGAAAGUAUUAUGUUACGCCGUUCGGAUCUGCACUUCCAGCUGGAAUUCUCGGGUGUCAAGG`, the log2 enrichment was 0.473.
The log2 enrichment of `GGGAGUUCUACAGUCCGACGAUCUCCUGUGCUACACAUCGUAUGUACCGAAUCGGGGAAAAAGGGGUUUGGGGUUUUUGGGGAAAGUAUUAUGUUACGCCGUUCGGAUCUGCAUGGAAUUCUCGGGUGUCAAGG` is reported as -1.43.
`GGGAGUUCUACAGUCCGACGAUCAAGUCCUGUGCUACACAUCGUAUGUACCGAAUCAAAUUUAAACCCAAACCCCCAAAAAAGUAUUAUGUUACGCCGUUCGGAUCUGCACUUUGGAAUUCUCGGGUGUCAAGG` gave a log2 enrichment of 0.92.
With `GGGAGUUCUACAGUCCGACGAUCGUCCUGUGCUACACAUCGUAUGUACCGAAUCGGCCCCCGGGGCCCCCGGCCCCCGGGGAAAGUAUUAUGUUACGCCGUUCGGAUCUGCACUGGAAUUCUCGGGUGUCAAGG` the log2 enrichment was -2.86.

Single results of other studies
With `CCCC(=O)Oc1ccc2[nH]c(C(=O)c3cc4ccccc4[nH]3)cc2c1` the remaining activity was 88.3% (Insulin-like growth factor 1 receptor (IGF1R, Homo sapiens, UniProt P08069); enzyme activity, inhibitor; 0.5 µM; baseline: control).

Some of these lines once more (sample 2):
`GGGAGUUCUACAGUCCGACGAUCACACGUAUAUUGUGGCAUAUAGUCAACACGGAAGUAGACCAGCUCUGCUGAUUUGAAAUUUAGAUUUUUUUUAAUUAUGUACUGGGGACAGGUUUUUGUCGCUUUACAUUGCUUCCUAGUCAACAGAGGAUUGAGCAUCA` gave a bound/input enrichment of 4.91 ratio.
With `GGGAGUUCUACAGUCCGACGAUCCUAUAUGUAGAAAAACAAUUUUCACUGAAGCCAUUGUCAAGUUUUCCCCCUAGAAUUUUAUUAGGAGCUCUUUAAUUUUAUACAAGCUUGCUGUGUUGGUCAUCAUUUCUCCACAGUUAACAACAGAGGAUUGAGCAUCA` the bound/input enrichment was 0.849 ratio.
`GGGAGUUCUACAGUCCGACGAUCGUCAUCUGAUUGGAUGAAGACUGUCCCAAGUUAUAACCAAACAAAUAGCUCCAUGGACUUCAGAAAUUAUAUGAUGAGAGAUGAGAAUCUGGAACCACUACCCAAAAACUGGGAGAUGGCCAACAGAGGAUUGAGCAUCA` gave a bound/input enrichment of 0.355 ratio.
